Assay results pooled from the literature.
Protocols differ between the studies behind these lines. ± gives the spread as reported.
Method: ITC
Rbpj: Rbpj 53-474 (Mus musculus, UniProt P31266)
UniProt P31266, sequence (whole entry, looked up): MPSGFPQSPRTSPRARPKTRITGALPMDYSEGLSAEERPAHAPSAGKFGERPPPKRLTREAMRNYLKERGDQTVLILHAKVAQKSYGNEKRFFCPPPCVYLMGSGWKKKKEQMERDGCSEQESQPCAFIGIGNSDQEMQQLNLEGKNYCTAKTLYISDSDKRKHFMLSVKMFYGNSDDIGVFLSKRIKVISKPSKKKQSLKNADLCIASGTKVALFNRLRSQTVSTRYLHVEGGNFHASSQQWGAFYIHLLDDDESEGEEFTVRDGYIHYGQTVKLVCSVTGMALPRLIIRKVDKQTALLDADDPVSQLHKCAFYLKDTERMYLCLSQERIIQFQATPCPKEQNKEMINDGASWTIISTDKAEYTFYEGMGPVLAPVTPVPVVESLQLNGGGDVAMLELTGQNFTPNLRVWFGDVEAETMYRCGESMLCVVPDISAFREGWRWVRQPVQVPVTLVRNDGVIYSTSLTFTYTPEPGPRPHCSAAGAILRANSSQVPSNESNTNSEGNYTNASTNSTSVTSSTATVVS
B1: VCL 879-1066 (Homo sapiens, UniProt P18206-2); sequence looked up; chain EEKDEEFPEQKAGEVINQPMMMAARQLHDEARKWSSKGNDIIAAAKRMALLMAEMSRLVRGGSGTKRALIQCAKDIAKASDEVTRLAKEVAKQCTDKRIRTNLLQVCERIPTISTQLKILSTVKATMLGRTNISDEESEQATEMLVHNAQNLMQSVKETVREAEAASIKIRTDAGFTLRWVRKTPWYQ
UniProt Q12798, sequence (whole entry, looked up): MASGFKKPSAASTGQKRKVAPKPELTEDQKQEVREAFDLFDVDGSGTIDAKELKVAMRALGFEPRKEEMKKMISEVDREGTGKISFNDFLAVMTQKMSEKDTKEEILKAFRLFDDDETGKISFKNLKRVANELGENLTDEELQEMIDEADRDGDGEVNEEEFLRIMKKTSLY
UniProt O15111, sequence (whole entry, unmodified, looked up): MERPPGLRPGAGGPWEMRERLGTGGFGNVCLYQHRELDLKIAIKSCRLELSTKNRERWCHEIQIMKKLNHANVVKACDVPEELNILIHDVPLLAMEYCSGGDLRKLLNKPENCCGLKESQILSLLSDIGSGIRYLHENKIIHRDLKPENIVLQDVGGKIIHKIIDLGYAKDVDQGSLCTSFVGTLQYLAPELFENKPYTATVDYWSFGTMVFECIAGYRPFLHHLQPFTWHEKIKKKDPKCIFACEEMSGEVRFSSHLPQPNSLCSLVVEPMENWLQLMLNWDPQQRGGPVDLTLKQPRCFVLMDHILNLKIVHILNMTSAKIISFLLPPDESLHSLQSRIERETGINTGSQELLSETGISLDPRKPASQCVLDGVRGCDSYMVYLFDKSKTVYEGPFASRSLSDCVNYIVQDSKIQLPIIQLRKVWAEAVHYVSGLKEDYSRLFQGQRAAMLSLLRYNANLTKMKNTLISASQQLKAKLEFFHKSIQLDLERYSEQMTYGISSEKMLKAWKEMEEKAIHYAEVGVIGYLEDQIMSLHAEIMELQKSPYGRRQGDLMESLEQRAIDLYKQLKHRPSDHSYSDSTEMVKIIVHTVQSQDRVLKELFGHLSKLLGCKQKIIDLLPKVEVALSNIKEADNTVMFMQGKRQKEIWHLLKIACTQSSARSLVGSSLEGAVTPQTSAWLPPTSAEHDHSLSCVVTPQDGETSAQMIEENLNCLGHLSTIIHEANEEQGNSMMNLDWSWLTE
UniProt Q8IY67, sequence (whole entry, looked up): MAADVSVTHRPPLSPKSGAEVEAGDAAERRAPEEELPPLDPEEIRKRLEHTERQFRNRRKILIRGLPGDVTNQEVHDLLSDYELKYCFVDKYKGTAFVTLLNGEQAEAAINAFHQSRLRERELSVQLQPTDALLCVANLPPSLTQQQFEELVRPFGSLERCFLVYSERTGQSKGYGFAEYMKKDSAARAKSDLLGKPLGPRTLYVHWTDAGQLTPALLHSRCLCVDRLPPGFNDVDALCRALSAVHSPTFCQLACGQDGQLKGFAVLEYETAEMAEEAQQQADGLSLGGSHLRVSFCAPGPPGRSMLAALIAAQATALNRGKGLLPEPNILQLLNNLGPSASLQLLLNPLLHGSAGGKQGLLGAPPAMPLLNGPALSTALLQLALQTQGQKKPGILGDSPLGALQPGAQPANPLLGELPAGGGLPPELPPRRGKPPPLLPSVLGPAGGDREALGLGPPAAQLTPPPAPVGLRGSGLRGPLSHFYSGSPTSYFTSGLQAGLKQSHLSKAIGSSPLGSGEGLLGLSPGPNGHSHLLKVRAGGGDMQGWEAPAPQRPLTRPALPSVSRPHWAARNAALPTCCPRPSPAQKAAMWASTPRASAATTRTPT
UniProt Q9HD67, sequence (whole entry, unmodified, looked up): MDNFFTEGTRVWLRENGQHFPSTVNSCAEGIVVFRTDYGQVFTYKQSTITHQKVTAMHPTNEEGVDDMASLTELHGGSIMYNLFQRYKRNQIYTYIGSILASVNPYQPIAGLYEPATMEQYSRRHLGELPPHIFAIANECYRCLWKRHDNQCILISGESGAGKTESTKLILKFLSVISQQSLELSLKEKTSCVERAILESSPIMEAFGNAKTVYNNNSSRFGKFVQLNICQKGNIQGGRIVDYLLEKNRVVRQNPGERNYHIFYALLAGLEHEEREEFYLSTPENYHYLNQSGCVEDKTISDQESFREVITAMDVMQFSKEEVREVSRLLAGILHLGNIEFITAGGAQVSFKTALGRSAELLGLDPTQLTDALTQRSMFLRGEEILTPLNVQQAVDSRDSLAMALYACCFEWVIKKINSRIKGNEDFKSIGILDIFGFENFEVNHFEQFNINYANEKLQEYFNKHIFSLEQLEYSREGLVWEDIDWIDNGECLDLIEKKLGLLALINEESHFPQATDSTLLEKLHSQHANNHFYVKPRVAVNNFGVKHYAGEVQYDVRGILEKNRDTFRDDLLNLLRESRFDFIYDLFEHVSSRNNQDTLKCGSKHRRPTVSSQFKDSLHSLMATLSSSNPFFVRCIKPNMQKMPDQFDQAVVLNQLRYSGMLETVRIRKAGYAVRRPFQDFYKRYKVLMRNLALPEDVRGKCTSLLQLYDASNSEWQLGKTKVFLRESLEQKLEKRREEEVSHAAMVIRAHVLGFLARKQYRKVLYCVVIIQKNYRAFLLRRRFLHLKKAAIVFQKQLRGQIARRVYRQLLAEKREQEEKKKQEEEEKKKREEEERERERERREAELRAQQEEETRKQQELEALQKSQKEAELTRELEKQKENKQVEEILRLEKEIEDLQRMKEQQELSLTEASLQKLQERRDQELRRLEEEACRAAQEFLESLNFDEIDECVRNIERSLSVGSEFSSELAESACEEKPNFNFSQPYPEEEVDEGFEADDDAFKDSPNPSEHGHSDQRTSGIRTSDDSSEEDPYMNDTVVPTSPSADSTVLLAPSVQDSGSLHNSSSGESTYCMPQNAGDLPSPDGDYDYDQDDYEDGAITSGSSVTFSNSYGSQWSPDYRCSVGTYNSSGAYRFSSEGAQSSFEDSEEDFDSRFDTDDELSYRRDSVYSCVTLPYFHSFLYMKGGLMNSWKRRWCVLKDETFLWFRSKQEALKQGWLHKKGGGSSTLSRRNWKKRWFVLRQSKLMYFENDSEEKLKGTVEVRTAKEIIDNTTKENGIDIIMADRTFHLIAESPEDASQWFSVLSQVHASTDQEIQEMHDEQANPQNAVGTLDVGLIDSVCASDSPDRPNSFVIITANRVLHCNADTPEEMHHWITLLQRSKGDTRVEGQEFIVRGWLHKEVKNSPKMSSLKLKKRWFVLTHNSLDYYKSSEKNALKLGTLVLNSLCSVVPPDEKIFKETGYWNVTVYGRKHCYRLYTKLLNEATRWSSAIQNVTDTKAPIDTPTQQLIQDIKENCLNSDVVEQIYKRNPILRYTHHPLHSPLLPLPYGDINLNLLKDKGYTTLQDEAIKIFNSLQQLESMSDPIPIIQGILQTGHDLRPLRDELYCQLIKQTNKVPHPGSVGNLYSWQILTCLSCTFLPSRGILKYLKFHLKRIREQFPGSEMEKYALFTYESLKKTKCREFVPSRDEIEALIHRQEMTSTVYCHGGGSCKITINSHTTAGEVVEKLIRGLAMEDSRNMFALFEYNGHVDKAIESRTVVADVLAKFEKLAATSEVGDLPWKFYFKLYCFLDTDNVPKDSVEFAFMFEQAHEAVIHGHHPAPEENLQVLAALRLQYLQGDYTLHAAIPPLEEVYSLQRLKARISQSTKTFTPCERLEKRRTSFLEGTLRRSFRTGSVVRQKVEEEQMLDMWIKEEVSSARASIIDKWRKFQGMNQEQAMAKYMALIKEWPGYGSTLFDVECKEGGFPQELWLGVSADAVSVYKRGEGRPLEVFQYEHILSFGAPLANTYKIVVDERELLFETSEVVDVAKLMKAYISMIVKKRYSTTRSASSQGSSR

Substance | partner | system | setting | ΔH
B1 (VCL 879-1066) | RAVER1 59-130 (Homo sapiens, UniProt Q8IY67) | – | 23 °C, NaCl 150 mM | -15.1 ± 0.5 kcal/mol
MENVKKATATTTWMVPTRQ (L3MBTL3 52-70 A69R (Homo sapiens, UniProt Q96JM7-2); sequence looked up) | Rbpj | peptide | pH 6.5, 25 °C, NaCl 150 mM | -13.8 kcal/mol
NFKBIA peptide to 317 C308L, C-terminal amide (Homo sapiens) | CHUK 10-667 S176E/S180E (Homo sapiens, UniProt O15111) | – | – | -13.7 kcal/mol
Ac-SQHNRQLLRGALRRWK-NH2 (SFI1 repeat 18, 677-692 (Homo sapiens); N-acetyl; C-terminal amide) | CETN1, phosphothreonine (Homo sapiens, UniProt Q12798) | peptide | pH 7.5, 30 °C, one-site model, with: CaCl2 1 mM | -39.4 kcal/mol
KLLITIHDRKEFAKFEEERARAKW (ITGB3 742-765 (Homo sapiens, UniProt P05106); sequence looked up) | Myom1 IgC2 domains 4-5 C1354S (Mus musculus) | peptide | – | -0.406 ± 0.215 kcal/mol
MENVKKATATTTWMVPTAQ (L3MBTL3 52-70 (Homo sapiens, UniProt Q96JM7-2); sequence looked up) | Rbpj | peptide | pH 6.5, 25 °C, NaCl 150 mM | -13.1 kcal/mol
KWDTANNPLYKEATSTFTNITYRGT (ITGB3 764-788 (Homo sapiens, UniProt P05106); sequence looked up) | Myom1 IgC2 domain 4 (Mus musculus) | peptide | – | -0.167 ± 0.0239 kcal/mol
ARSPLLPVSVPTAPEVSEESHKPTEDSANVYEQDDLSEQMASLEGLMKQLNAITGSAF (DCC 1390-1447 (Homo sapiens, UniProt P43146); sequence looked up) | MYO10 MyTH4-FERM 1486-2058 del1872-1891 (Homo sapiens, UniProt Q9HD67) | peptide | pH 8.5, 20 °C, NaCl 150 mM | -4.98 ± 0.04 kcal/mol
MENVKAATATTTWMVPTAQ (L3MBTL3 52-70 K57A (Homo sapiens, UniProt Q96JM7-2); sequence looked up) | Rbpj | peptide | pH 6.5, 25 °C, NaCl 150 mM | -11.9 kcal/mol

A few entries again:
Substance | partner | system | setting | ΔH
Ac-SQHNRQLLRGALRRWK-NH2 (SFI1 repeat 18, 677-692 (Homo sapiens); N-acetyl; C-terminal amide) | CETN1, phosphothreonine (Homo sapiens, UniProt Q12798) | peptide | pH 7.5, 30 °C, one-site model, with: CaCl2 1 mM | -39.4 kcal/mol
